Measurements pooled from the literature.
Lines come from different studies, so protocols differ. Numbers after ± are the reported error.
HTR1B: 5-hydroxytryptamine receptor 1B (HTR1B, Homo sapiens, UniProt P28222)
UniProt P28222, sequence (whole entry, looked up): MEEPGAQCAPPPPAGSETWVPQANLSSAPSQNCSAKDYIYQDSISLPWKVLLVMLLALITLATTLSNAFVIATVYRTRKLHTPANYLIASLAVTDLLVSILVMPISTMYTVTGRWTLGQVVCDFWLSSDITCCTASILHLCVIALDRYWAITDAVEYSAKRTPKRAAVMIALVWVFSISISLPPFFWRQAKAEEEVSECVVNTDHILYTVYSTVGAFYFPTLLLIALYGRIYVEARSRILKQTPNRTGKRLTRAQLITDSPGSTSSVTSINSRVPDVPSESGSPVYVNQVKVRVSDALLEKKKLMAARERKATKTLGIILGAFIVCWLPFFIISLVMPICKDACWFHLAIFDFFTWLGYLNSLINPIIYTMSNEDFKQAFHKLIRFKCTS
UniProt P03023, sequence (whole entry, unmodified, looked up): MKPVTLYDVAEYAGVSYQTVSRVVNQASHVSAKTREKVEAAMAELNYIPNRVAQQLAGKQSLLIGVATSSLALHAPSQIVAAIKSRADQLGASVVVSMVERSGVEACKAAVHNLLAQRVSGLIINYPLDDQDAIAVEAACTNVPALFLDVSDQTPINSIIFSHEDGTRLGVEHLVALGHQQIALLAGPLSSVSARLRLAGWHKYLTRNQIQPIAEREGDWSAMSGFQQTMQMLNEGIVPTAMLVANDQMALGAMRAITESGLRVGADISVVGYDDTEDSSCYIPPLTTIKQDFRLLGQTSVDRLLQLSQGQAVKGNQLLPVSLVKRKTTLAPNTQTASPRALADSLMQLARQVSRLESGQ
UniProt O75469, sequence (whole entry, looked up): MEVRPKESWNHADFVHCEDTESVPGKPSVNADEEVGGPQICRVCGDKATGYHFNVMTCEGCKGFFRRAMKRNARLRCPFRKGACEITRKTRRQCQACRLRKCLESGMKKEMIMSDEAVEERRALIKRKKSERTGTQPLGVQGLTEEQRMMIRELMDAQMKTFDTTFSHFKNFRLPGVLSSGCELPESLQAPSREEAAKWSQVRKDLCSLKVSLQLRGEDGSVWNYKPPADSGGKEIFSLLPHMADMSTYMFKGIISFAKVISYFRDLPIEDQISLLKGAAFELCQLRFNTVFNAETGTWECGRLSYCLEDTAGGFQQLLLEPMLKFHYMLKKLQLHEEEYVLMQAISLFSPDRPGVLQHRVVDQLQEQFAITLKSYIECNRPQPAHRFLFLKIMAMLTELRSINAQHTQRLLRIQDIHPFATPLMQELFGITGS
UniProt P29276, sequence (whole entry, looked up): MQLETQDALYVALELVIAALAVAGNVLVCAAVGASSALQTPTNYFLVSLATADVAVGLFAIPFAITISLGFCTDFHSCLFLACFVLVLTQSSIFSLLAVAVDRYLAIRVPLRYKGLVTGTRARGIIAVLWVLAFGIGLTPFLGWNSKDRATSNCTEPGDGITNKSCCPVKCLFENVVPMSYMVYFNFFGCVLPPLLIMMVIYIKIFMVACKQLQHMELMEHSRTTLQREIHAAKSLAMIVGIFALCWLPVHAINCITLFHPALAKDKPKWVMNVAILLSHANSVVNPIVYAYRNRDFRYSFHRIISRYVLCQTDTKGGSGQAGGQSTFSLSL
UniProt Q8NER1, sequence (whole entry, looked up): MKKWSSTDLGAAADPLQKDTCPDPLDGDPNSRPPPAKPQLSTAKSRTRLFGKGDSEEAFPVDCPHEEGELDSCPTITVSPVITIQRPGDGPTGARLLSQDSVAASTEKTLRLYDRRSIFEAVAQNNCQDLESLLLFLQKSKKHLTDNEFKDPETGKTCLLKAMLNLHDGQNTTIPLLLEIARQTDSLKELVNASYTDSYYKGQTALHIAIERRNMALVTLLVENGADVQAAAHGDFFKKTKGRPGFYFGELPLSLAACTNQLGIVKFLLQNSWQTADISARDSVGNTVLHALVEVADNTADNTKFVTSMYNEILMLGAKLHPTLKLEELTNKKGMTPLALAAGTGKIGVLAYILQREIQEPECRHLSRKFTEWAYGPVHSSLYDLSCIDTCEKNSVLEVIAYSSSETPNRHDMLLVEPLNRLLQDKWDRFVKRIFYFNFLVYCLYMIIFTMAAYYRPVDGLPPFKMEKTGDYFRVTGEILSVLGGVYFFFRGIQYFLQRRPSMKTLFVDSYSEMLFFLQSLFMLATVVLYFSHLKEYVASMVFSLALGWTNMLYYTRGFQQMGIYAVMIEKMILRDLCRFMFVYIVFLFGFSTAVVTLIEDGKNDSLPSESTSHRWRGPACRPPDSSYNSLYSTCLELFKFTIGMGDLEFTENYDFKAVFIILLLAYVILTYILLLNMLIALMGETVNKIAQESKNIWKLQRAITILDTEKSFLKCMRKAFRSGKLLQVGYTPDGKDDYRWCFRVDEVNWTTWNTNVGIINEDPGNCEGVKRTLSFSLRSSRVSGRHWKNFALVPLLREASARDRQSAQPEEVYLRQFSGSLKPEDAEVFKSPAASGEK
UniProt Q14831, sequence (whole entry, looked up): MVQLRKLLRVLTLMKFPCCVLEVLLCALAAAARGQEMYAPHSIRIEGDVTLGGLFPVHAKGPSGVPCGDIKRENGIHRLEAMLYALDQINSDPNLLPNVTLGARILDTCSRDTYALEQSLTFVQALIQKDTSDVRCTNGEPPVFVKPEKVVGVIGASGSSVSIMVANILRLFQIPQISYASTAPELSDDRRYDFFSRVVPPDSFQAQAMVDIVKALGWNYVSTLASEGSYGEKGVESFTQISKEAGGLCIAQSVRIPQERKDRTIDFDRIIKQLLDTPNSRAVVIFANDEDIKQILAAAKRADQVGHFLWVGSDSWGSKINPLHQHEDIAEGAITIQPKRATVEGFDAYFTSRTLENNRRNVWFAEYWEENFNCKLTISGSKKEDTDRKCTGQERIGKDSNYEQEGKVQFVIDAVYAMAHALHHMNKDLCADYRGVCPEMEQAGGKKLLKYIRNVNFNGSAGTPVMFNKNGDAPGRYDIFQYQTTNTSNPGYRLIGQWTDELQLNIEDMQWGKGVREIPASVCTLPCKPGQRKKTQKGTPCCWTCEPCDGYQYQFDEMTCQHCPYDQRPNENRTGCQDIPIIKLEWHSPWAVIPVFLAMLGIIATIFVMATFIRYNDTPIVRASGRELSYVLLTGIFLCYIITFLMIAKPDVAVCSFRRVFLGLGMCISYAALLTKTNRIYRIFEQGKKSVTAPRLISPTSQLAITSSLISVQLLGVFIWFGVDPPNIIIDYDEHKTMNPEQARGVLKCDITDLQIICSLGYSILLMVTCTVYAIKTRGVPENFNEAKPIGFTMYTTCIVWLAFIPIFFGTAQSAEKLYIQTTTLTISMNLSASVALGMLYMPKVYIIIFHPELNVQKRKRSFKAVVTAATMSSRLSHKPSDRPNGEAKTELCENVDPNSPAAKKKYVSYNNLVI
UniProt P20782, sequence (whole entry, looked up): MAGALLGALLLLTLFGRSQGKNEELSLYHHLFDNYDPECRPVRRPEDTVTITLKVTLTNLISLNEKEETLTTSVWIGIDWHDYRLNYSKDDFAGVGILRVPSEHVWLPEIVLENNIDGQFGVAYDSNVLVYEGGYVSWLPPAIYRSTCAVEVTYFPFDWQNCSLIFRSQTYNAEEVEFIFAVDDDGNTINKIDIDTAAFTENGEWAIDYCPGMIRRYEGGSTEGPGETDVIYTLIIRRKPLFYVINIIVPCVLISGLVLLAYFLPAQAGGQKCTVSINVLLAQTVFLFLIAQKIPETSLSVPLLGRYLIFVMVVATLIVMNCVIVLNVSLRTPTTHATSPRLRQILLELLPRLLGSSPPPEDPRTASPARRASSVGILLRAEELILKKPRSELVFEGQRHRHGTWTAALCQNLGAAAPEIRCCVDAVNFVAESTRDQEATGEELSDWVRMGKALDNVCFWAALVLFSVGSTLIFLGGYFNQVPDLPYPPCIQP
UniProt Q8BZ39, sequence (whole entry, looked up): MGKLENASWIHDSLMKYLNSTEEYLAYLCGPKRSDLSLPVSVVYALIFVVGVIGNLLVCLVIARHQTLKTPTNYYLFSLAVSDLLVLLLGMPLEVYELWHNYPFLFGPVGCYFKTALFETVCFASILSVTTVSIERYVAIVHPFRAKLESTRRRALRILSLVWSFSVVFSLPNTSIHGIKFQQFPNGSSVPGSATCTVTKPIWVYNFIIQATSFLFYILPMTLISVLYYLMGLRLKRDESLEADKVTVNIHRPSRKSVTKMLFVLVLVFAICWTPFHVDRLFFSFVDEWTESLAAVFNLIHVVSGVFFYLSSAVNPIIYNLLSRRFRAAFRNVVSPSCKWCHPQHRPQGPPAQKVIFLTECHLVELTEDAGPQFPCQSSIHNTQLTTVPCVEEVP
UniProt P04756, sequence (whole entry, looked up): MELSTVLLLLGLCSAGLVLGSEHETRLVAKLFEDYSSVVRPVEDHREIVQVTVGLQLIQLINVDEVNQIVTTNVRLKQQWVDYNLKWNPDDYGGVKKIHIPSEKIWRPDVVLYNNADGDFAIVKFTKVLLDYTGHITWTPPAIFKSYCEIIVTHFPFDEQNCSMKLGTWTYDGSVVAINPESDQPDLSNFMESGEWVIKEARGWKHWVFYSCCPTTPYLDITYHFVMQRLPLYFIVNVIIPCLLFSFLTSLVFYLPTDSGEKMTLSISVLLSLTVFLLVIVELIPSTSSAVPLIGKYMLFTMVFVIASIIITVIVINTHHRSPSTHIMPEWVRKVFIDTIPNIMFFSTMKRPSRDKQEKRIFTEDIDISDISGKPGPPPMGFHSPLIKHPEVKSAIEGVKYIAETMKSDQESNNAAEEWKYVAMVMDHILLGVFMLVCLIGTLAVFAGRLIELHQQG

| SMILES | target | assay | test system | conditions | EC50 |
| --- | --- | --- | --- | --- | --- |
| OC[C@H]1O[C@@H](OCCc2ccccc2)[C@H](O)[C@@H](O)[C@H]1O | lacI (Escherichia coli, UniProt P03023, D149C) | operator DNA release, nitrocellulose filter binding |  | with: O1 operator DNA | > 1000 µM |
| C[C@H](C(=O)N[C@H]1COc2ccccc2[C@@H]1S(C)(=O)=O)c1ccc(F)cc1 | Metabotropic glutamate receptor 7 (GRM7, Homo sapiens, UniProt Q14831) | agonist, CellKey impedance | CHO cells expressing mGluR7 |  | 0.08 µM |
| CC[N+]1(C)CCN(c2ccccc2Cl)CC1 | Nicotinic acetylcholine receptor alpha1/beta1/epsilon/delta (Mus musculus, UniProt P02716+P04756+P09690+P20782) | agonist |  |  | 11 ± 2.07 µM |
| CCCCCCCCCCCCCC(=O)O[C@@H]1[C@@H](C)[C@@]2(O)[C@@H](C=C(CO)C[C@]3(O)C(=O)C(C)=C[C@@H]23)[C@@H]2C(C)(C)[C@]12OC(C)=O | Adenosine receptor A2b (Adora2b, Rattus norvegicus, UniProt P29276) | cAMP accumulation, agonist | H9c2 | 5 min | 0.12 ± 0.036 µM |
| C[C@]1(O)CC[C@@]2(C)[C@@H](CC[C@@H]3[C@@H]2CC[C@]2(C)[C@@H]([N+](=O)[O-])CC[C@@H]32)C1 | GABAA receptor (rat) | enhancement of [3H]flunitrazepam binding, positive modulator | rat cerebral cortex homogenate | with: GABA 1.0 µM | > 10 µM |
| CC(C)C[C@H](NC(=O)[C@H](Cc1ccccc1)NC(=O)[C@H](Cc1ccc(O)cc1)NC(=O)CNC(=O)[C@H](CCCCN)NC(=O)[C@H](CO)NC(=O)[C@H](CCC(N)=O)NC(=O)CNC(=O)[C@@H](NC(=O)[C@H](CO)NC(=O)[C@@H]1CCCN1C(=O)[C@H](CO)NC(=O)[C@H](CCC(N)=O)NC(=O)[C@H](Cc1ccc(O)cc1)NC(=O)[C@H](CCC(=O)O)NC(=O)[C@H](C)NC(=O)[C@H](CCCCN)NC(=O)[C@@H](N)Cc1ccccc1)C(C)C)C(=O)N[C@@H](Cc1ccccc1)C(=O)N[C@@H](CCCNC(=N)N)C(=O)N1CCC[C@H]1C(=O)N[C@@H](CCCNC(=N)N)C(=O)N[C@@H](CC(N)=O)C(N)=O | Neuromedin-U receptor 2 (Mus musculus, UniProt Q8BZ39) | IP-1 accumulation, agonist, IP-1 |  | mean of independent runs | 0.00079 µM |
| C[C@]12CC[C@@H](O)C[C@@H]1CC[C@@H]1[C@@H]2CC[C@]2(C)[C@@H]([N+](=O)[O-])CC[C@@H]12 | GABAA receptor (rat) | enhancement of [3H]flunitrazepam binding, positive modulator | rat cerebral cortex homogenate | with: GABA 1.0 µM | 0.0229 ± 0.0035 µM |
| COc1ccc2[nH]cc(C3=CCNCC3)c2c1 | HTR1B | receptor function, agonist | cells |  | 0.0098 µM |
| CO/N=C1\C[C@]2(C[C@@H]3C[C@@H](C/C=C(\C)C[C@@H](C)/C=C/C=C4\CO[C@@H]5[C@H](O)C(C)=C[C@@H](C(=O)O3)[C@]45O)O2)O[C@H](/C(C)=C/C(C)C)[C@H]1C | Nuclear receptor subfamily 1 group I member 2 (NR1I2, Homo sapiens, UniProt O75469) |  |  |  | 6.21 ± 2.59 µM |
| COc1cc(C(=O)N2CC[C@@H](O)[C@@H](N)C2)cc2nc(-c3cc4ccccc4n3CC3CC3)n(C)c12 | HTR1B | agonist, GTPγS binding |  |  | 20 µM |
| CCCCCCCC/C=C\CCCCCCCC(=O)NCc1ccc(O)c(OC)c1 | Transient receptor potential cation channel subfamily V member 1 (TRPV1, Homo sapiens, UniProt Q8NER1) | Ca2+ influx, agonist, BRET | HEK-293T |  | 0.295 µM |
| C[C@H]1O[C@@H](Oc2ccccc2[N+](=O)[O-])[C@H](O)[C@@H](O)[C@H]1O | lacI (Escherichia coli, UniProt P03023, D149A) | operator DNA binding, nitrocellulose filter binding |  | with: O1 operator DNA | 45 ± 2.9 µM |
